# Results collected from several papers.
# Protocols differ between the studies behind these lines. “And” joins repeats or separate records; there may be more than shown. ± marks the error that the study gave.
SMILES,assay,test system,setting,scale,measurement,result
CC[C@H](C)[C@H](NC(=O)[C@H](Cc1ccccc1)NC(=O)[C@H](CCC(=O)O)NC(=O)[C@H](CCCCNC(=O)COCCOCCNC(=O)COCCOCCNC(=O)CC[C@H](NC(=O)CCCCCCCCCCCCCCCCC(=O)O)C(=O)O)NC(=O)[C@H](C)NC(=O)[C@H](C)NC(=O)[C@H](CCC(N)=O)NC(=O)CNC(=O)[C@H](CCC(=O)O)NC(=O)[C@H](CC(C)C)NC(=O)[C@H](Cc1ccc(O)cc1)NC(=O)[C@H](CO)NC(=O)[C@H](CO)NC(=O)[C@@H](NC(=O)[C@H](CC(=O)O)NC(=O)[C@H](CO)NC(=O)[C@@H](NC(=O)[C@H](Cc1ccccc1)NC(=O)[C@@H](NC(=O)CNC(=O)[C@H](CCC(=O)O)NC(=O)C(C)(C)NC(=O)[C@@H](N)Cc1cnc[nH]1)[C@@H](C)O)[C@@H](C)O)C(C)C)C(=O)N[C@@H](C)C(=O)N[C@@H](Cc1c[nH]c2ccccc12)C(=O)N[C@@H](CC(C)C)C(=O)N[C@H](C(=O)N[C@@H](CCCNC(=N)N)C(=O)NCC(=O)N[C@@H](CCCNC(=N)N)C(=O)NCC(=O)O)C(C)C,12-lead Holter ECG,healthy humans,"subcutaneous, 1.5 mg once weekly, 48 h, steady state",baseline: placebo,QTcB change from baseline,11.1 ms
Cc1cccc(CNC(=O)c2cn(CCNC(=O)c3ccccc3Sc3c([N+](=O)[O-])ncn3C)c3cc4c(cc3c2=O)OC(F)(F)O4)n1,,"Sprague-Dawley rat, male, plasma","intravenous, 5 mg/kg of parent drug",,AUC(0-t),264 ± 44 ng·h/mL
C[C@H]1Oc2cc(cnc2N)-c2c(nn(C)c2C#N)CN(C)C(=O)c2ccc(F)cc21,population PK,"patients with mild hepatic impairment (NCI sample B), plasma","oral, 100 mg, mean, single dose",,clearance,156 mL/min
OC[C@H]1O[C@@H](c2ccc(Cl)c(Cc3ccc(O[C@H]4CCOC4)cc3)c2)[C@H](O)[C@@H](O)[C@@H]1O,refers to: infections and infestations,healthy Korean men,"oral, dose not given",,number of TEAEs,1
C[C@@H]1CCO[C@H]2Cn3cc(C(=O)NCc4ccc(F)cc4F)c(=O)c(O)c3C(=O)N12,,"human paediatric patients, weight sample B to under sample C kg, plasma","oral, 50 mg film-coated tablet, 24 h, steady state, geometric mean, population PK post-hoc, N 6",,trough concentration (C24),567 ng/mL
CCN1CCN(Cc2ccc(NC(=O)c3ccc(C)c(NC(=O)c4cncc(-c5cccs5)c4)c3)cc2C(F)(F)F)CC1,,"C57BL/6 mouse, plasma","intraperitoneal, 15 mg/kg, 0.25 to 8.0 h, single dose",,AUC/dose,0.12 kg·µg·h/mL/mg
CC[C@H](C)[C@@H]([C@@H](CC(=O)N1CCC[C@H]1[C@H](OC)[C@@H](C)C(=O)N[C@@H](Cc1ccccc1)C(=O)NCCCO)OC)N(C)C(=O)[C@@H](NC(=O)[C@H](C(C)C)N(C)C)C(C)C,,Sprague Dawley rat,"intravenous, 120 h, dosed as NaPi2b ADC, recovery-corrected",,fraction excreted via CYP metabolism,0.0376
Cn1ncnc1[C@H]1c2n[nH]c(=O)c3cc(F)cc(c23)N[C@@H]1c1ccc(F)cc1,,"human patients, plasma","oral, 600 µg/m2 twice daily day 1, day 5, dose level DL6, median, added: temozolomide 55 mg/m2 daily days 2-6",,CL/F at steady state,2.4 L/h/m2
Cc1cc(Nc2ncc(Cl)c(Nc3ccccc3S(=O)(=O)C(C)C)n2)c(OC(C)C)cc1C1CCNCC1,,"human, plasma","oral, 450 to 600 mg, cycle 1 day 1",,AUC(0-24h) increase,28%
Cc1cc(Nc2ccc(S(F)(F)(F)(F)F)cc2)n2nc(C(C)(F)F)nc2n1,,Plasmodium vivax malaria patients,"oral, 400 mg",,adverse event Asthenia,0%
CCOc1c([C@H](C)n2nc(C)c3c(N)ncnc32)cc(Cl)c(F)c1[C@@H]1CNC(=O)C1,,previously treated B-cell malignancy patients,"oral, dose not given, all doses, baseline QTcF ≤450 ms",,share of patients with ΔQTcF ≤30 ms,100%
CCn1cc(C(=O)N2CCOCC2)c(=O)c2cc(NC3Cc4ccccc4C3)cnc21,,"human, plasma","oral, 900 mg BID, day 7, fed, tablet, overall",,CL/F,18.6 L/h
NC1(C(=O)N[C@@H](CCO)c2ccc(Cl)cc2)CCN(c2nc[nH]c3nccc2-3)CC1,,metastatic CRPC patients,"480 mg b.i.d., grade 3 to 4, treatment-related, added: enzalutamide 160 mg daily",,incidence of Amnesia,0%
CC1(C)CCC(CN2CCN(c3ccc(C(=O)NS(=O)(=O)c4ccc(NCC5CCOCC5)c([N+](=O)[O-])c4)c(Oc4cnc5[nH]ccc5c4)c3)CC2)=C(c2ccc(Cl)cc2)C1,,"human male, plasma",oral,,Vss,4.04 L/kg
C=CCN1CC(=O)N2[C@@H](Cc3ccc(O)cc3F)C(=O)N(Cc3cccc(N4CC(N5CCN(CC)CC5)C4)n3)C[C@@H]2N1C(=O)NCc1ccccc1,,advanced solid tumour patients,"oral, 10 mg twice daily, grade ≥3, dose-escalation",,any treatment-related adverse event,0%
O=C(Nc1nc2cccc(-c3ccc(CN4CCS(=O)(=O)CC4)cc3)n2n1)C1CC1,refers to: metabolism and nutrition disorders,human rheumatoid arthritis patients,"oral, 75 mg once daily, 4 weeks, regardless of relatedness",,treatment-emergent adverse events,4.5%
CC(C)c1ncc(C(=O)N2CCOC3(CCN(Cc4ccc(F)c(CCNC[C@H](O)c5ccc(O)c6[nH]c(=O)sc56)c4)CC3)C2)s1,equilibrium dialysis,"rat, plasma",,,fraction unbound,0.098
CCc1c(-c2ccccc2)c(-c2ccccc2)nn1-c1ccccc1-c1cccc(OCC(=O)O)c1,,"female Sprague-Dawley rat, ovary","oral, 10 mg/kg, 1 h",,concentration,1750 ng/g
O=C1NCCc2nc(OCc3cccc(F)c3)ccc21,refers to: loss of Grasping,Sprague-Dawley rat male,"oral, 100 mg/kg, 4 h",direction not given,Irwin test score,0.2
NC(=S)NN=Cc1ncccc1N,,"human, plasma","intravenous, 50 mg, geometric mean",,Vss,98 L
COc1ccc(CNc2nc(-c3ccc(C(=O)O)cc3)nc3sc4ccccc4c23)cc1Cl,,NSG mice,"dose not given, day 3",,body weight,21.5 g and 18.4 g and 19.1 g and 20.6 g
C[C@@H](N)C1CCN(S(=O)(=O)c2cccc3cnccc23)CC1,,healthy volunteers,"150 mg, fasted",,discontinuations due to TEAEs,0%
COc1ccc(/C=N/NC(=O)Cn2c(-c3ccc(S(C)(=O)=O)cc3)nc3cc(C)ccc32)cc1,,"rat, stomach","concentration not given, 4 h",,ulcer number,2.67
Cc1ccc([C@@H]2O[C@H](CO)[C@@H](O)[C@H](O)[C@H]2O)cc1Cc1ccc(-c2ccc(F)cc2)s1,,Japanese type 2 diabetes patients,"25 mg, day 2, 24 h urine collection",baseline: baseline,urinary sodium excretion change,-40.7 mEq
Cc1nc(-c2ccc(OCC(C)C)c(C#N)c2)sc1C(=O)O,,healthy Chinese subjects,"oral, 40 mg single, fasting",,participants with AEs grade 3 or above,0%
COCc1cc(C(=O)Nc2cc([C@H]3CC[C@@H](OC(=O)NC(C)C)C3)[nH]n2)n(C)n1,,"OVCAR-3 xenograft, NOD/SCID gamma mice, plasma","oral, 175 twice daily, tumour growth inhibition study",,Tmax,7.5 h
C1=C/COCc2cc(ccc2OCCN2CCCC2)Nc2nccc(n2)-c2cccc(c2)COC/1,LC-MS/MS,"Sprague-Dawley rat, male, plasma","oral, 36 mg/kg, added: voriconazole 30 mg/kg oral",,Vz/F,155 ± 73.2 L
O=C(O)CCC(=O)O.[2H]C([2H])([2H])Oc1cc(C)c2[nH]ccc2c1CN1CC[C@@H](C2CC2)C[C@H]1c1ccc(C(=O)O)cc1,multiple ascending dose,healthy Chinese subjects,125 mg twice daily,,subjects with reduced potassium TEAE,0%
CC(=O)O[C@H]1C(=O)[C@@]2(C)[C@H]([C@H](OC(=O)c3ccccc3)[C@]3(O)C[C@H](OC(=O)[C@H](O)[C@@H](NC(=O)c4ccccc4)c4ccccc4)C(C)=C1C3(C)C)[C@]1(OC(C)=O)CO[C@@H]1C[C@@H]2O,,patients with advanced solid tumours,"intravenous, dose not given, phase Ib, probably related to compound",,"adverse events, any",70%
Nc1ncnc2c1c(Oc1cc(C(F)(F)F)ccn1)nn2[C@@H]1CCCC[C@H]1O,,"minipig, liver microsomes",,,metabolic stability,stable
COc1ccc(C[C@@H](C)[C@@H](C)Cc2ccc(OC)c(OC)c2)cc1OC,,"beagle dog female, plasma","oral, 300 mg/kg/day, day 1",,AUC(0-t),29900 ± 26900 ng·h/mL
CN1C(=O)[C@@H](NC(=O)c2nnc(Cc3ccccc3)[nH]2)COc2cccnc21,,"human, both sexes",,,t½,6 to 9 h
COc1ccnc(C(N)=O)c1O,aerobic dark soil incubation,clay soil,"20 °C, persistence endpoint",,DT50,23.7 days
O=C(c1cccnc1-c1ccncc1)N1CCC(O)(Cc2ccccc2)CC1,,healthy Japanese adults,"oral, dose not given, 21 days",,participants with serious adverse events,0%
CC(=O)/N=S(\c1ccc(C(F)(F)F)cc1)C1CC1 (stereo not shown),,human liver microsomes,,baseline: hepatic blood flow,metabolic stability,< 23%
Cn1cncc1-c1c(F)cncc1NC(=O)c1c(N)nn2cc(F)cnc12,,"patients, advanced solid tumours","oral, 180 mg once daily, 2 weeks on 1 week off",baseline: patients,grade ≥2 adverse events,25%
Cc1ccc2nc(-c3ccccc3)cn2c1,,"peritoneal macrophages, Swiss mice","5 days, 5% fetal calf serum",,CC50,> 63.1 µM
Cc1cc(NC2CCN(C(=O)OC3CCN(C(=O)/C=C/CN(C)C)C3)CC2)n2ncc(C(C)C)c2n1 (stereo not shown),"Phase I dose escalation CTCAE v4.0, refers to: AST increased",patients with advanced solid tumours,"dose not given, TIW dosing any grade",,patients with adverse event,27%
CCCCC[C@H](O)CC[C@@H]1[C@H]2Cc3cccc(OCC(=O)O)c3C[C@H]2C[C@H]1O,LC-MS/MS,"Japanese PAH patients ≥56.7 kg, plasma","inhaled, 54 µg",,geometric mean AUC(0-inf),0.89 ng·h/mL
N#Cc1ccc2c(c1)[C@H]1CCCN(C(=O)c3ccc4[nH]cnc4c3)[C@H]1C2,,human,"40 mg, day 7",,maximum ACTH level,12.1 pmol/L
C[C@@H]1OC(=O)[C@H](Cc2ccccc2)[C@H]1O,aerobic dark soil incubation,clay loam soil,"20 °C, modelling endpoint",,DT50,2.31 days
[18F]c1ccc(-c2ccc3c(c2)[nH]c2ccncc23)cn1,ex vivo biodistribution,"APP/PS1 mouse, AD model, heart","intravenous, 30 min",,SUV,0.522 ± 0.071
CNCc1ccc(-c2[nH]c3cc(F)cc4c3c2CCNC4=O)cc1,,human patients,"oral, 840 mg twice daily, all grades",,malignant neoplasm progression incidence,0%
COc1cc(C(=O)N2CCC3(CC2)CC(=O)c2c(cnn2C(C)C)C3)cc(-c2ccc(C(=O)O)cc2)n1,refers to: total cholesterol,"human, fasting serum","10 mg every 12 h, day 13, adjusted geometric mean",baseline: baseline and placebo,placebo-adjusted change from baseline,-1.3%
OCc1nc2ccc(NCc3ccc(C(F)(F)F)cc3)cc2[nH]1,,"Balb/c mouse, male, kidney","intravenous, 1 mg/kg, 6 h",baseline: tissue over plasma,tissue/plasma ratio,7.5 ± 3.4
NC[C@@]1(CC(=O)O)[C@@H]2CC[C@H]3C[C@@H]2[C@@H]1C3,,"human, moderate renal impairment, urine","oral, 20 mg single dose",,cumulative amount excreted,14.1 ± 1.28 mg
Cc1c(Cl)c(C)[n+]([O-])c(Cl)c1-c1noc(-c2cc(O)c(O)c([N+](=O)[O-])c2)n1,refers to: Mild severity,healthy Chinese subjects,"oral, 100 mg",,adverse event incidence,33.3%
C[C@H]1Oc2cc(cnc2N)-c2c(nn(C)c2C#N)CN(C)C(=O)c2ccc(F)cc21,,"human patients, plasma","oral, dose not given, cycle 2 day 1, median, added: avelumab",,AUClast,4510 ng·h/mL
CC(C)(C(=O)N1CCOc2c(C#N)cncc2C1)C(F)F,refers to: cutaneous vasculitis,"human, both sexes","oral, 20 mg twice daily, 14 days, multiple ascending dose",,subjects with TEAE,0%
CCc1cc(C(=O)NC)c2nccc(N3CCc4c(cc(Cn5ccnc5)cc4-c4cn(C)nc4C(F)(F)F)C3=O)c2c1,refers to: Neut,Sprague Dawley rat,"oral, 100 mg/kg once daily, 7 days",baseline: vehicle,change in clinical chemistry or haematology parameter,-37.5%
CC(=O)CC(c1ccccc1)c1c(O)c2ccccc2oc1=O (stereo not shown),,human liver microsomes,added: NADPH,,metabolic stability,stable
C=CC(=O)Nc1cc(Nc2nccc(-c3cn(C)c4ccccc34)n2)c(OC)cc1N(C)CCN(C)C,storage stability,human dried blood spot samples,"30 d, -80 °C, MQC level",baseline: nominal concentration,percentage recovery,41%
Cc1cc(-c2nnc(N)nc2-c2ccc(F)cc2)cc(Cl)n1,refers to: Rash,IO-naive colorectal cancer patients,"oral, dose not given, treatment-related, all grades",,patients with immune-mediated AE,4%
C#Cc1cccc(Nc2ncnc3cc(OCCOC)c(OCCOC)cc23)c1,,"human, plasma","oral, 50 mg, day 1",,V/F,147 ± 73 L
C[C@@H]1CN(CC(=O)N2CC(C)(C)c3nc(CO)c(Cc4ccc(F)cc4)cc32)[C@@H](CN2CCOC[C@H]2C)CN1,,"male Sprague Dawley rats, bile duct cannulated, urine","intravenous, 5 mg/kg, 24 h",baseline: dose,unchanged drug excreted,34%
